# Measured values from different studies.
# Compare with care: the assays were run in different laboratories. ± gives the spread as reported.
SMILES,assay,system,conditions,how to read,measurement,value
CCCOC(=O)Cc1c(C)n(C(=O)c2ccc(Cl)cc2)c2ccc(OC)cc12,hot plate test,BALB/c mice,"100 mg/kg, 0 min",,latency of nociceptive response,9.78 ± 0.33 s
CSCCNc1nc(SCCC(F)(F)F)nc2c1ncn2[C@@H]1O[C@H](COP(=O)(O)OP(=O)(O)C(Cl)(Cl)P(=O)(O)O)[C@@H](O)[C@H]1O,"ADP-induced platelet aggregation, LTA, >59% aggregation","human patients, platelet-rich plasma","dose not given, 3 h, with: ADP 20 µM",,patients with high reactivity,82%
Cc1nc(C)c(C=[N+]([O-])C(C)(C)C)nc1C,"Western blot, measured: Nrf2","mouse, MPTP model, substantia nigra cytosol",10 mg/kg,,protein level increase,62.4%
Cc1sc(-c2ccc(C(F)(F)F)cc2)nc1-c1nn[nH]c1C#N,,male ZDF rat,"oral, 2 mg/kg/day, 1008 h",reference: vehicle,HbA1c reduction,0.45 percentage points
Cc1cccc(Cn2ncc3c4cc(F)c(CN(C)C)cc4n(C)c3c2=O)n1,,"rd10 mouse, retina","intraperitoneal, 50 mg/kg, 7 days (P21)",,retinal PK activity,increased
CC(=O)N[C@@H](CCCNC(=N)N)C(=O)NCCOCCOCC(=O)N[C@H](C)C(=O)N1CCC[C@H]1B(O)O,plasma clot lysis,normal human plasma,"50 µM, 72 h, 29 °C, at total lysis, with: uPA",,reduction of clot lysis time,17%
O=C(O)CNC(=O)CNC(=O)[C@@H]1CCCN1C(=O)[C@@H]1CCCN1,"diketopiperazine formation, Arrhenius plot, ESI-MS",1-propanol,"70, 80, 90 °C, 0.5% acetic acid",,ΔG‡ at 298.15 K,22.7 ± 0.239 kcal/mol
CC(C)(C)C(=O)Nc1ccc2[nH]c(CN3CCC(N(CCCN4CCOCC4)CC4OC(n5cnc6c(N)ncnc65)C(O)C4O)CC3)nc2c1 (stereo not shown),Western blot,"BALB/c nude mice, H460 R231Q xenograft, tumour tissue","intraperitoneal, 20 mg/kg",reference: vehicle,H3K79me2 level,decreased
C=CC1=C(C)c2cc3[n-]c(cc4nc(cc5[n-]c(cc1n2)c(C)c5C=C)C(C)=C4CCC(=O)O)c(CCC(=O)O)c3C.[Cl-].[Fe+3],"in vitro translation, inhibitor",Trypanosoma cruzi translation extract,with: capped polyadenylated Renilla mRNA,,lowest inhibitory concentration,> 1.5 µM
CC(C)[C@H](NC(=O)CN)C(=O)N[C@@H](CCCCN)C(=O)NCC(=O)N[C@@H](CC(=O)O)C(=O)N[C@@H](CCCCN)C(=O)NCC(=O)N[C@@H](CC(N)=O)C(=O)N1CCC[C@H]1C(=O)NCC(=O)N[C@@H](Cc1c[nH]c2ccccc12)C(=O)N1CCC[C@H]1C(=O)NCC(=O)N[C@@H](C)C(=O)N1CCC[C@H]1C(=O)O,,"SCC-9 squamous cell carcinoma, human","100 µg/mL coating, peptide-coated plates",reference: input cells,cell adhesion,1.9%
CC(C)(O)c1ccc(N2Cc3c(ccnc3-c3ccc(F)cc3OCC(F)(F)F)C2=O)cc1,,"Gaucher disease mouse model, brain","10 mg/kg, single dose",reference: vehicle,glucosylceramide level,55 ± 2%
CC(=O)Nc1ccc(OC(=O)CCC(=O)[O][Pt-2]23([O]C(=O)CCC(=O)Oc4ccc(NC(C)=O)cc4)([NH2+][C@@H]4CCCC[C@H]4[NH2+]2)[O]C(=O)C(=O)[O]3)cc1,,"BALB/c mouse, 4T1 tumour, tumour tissue",dose not given,reference: PBS,TNF-alpha level,3 fold
COc1ccc(C2CC(c3ccc(C)cc3)=Nc3ccccc3S2)cc1 (stereo not shown),,"Wistar rat, STZ-induced diabetes","oral, 10 mg/kg once daily, day 21",,blood glucose,148 ± 5.01 mg/dL
COc1cc2c(cc1OC)CC(=O)N(C[C@H]1CCCN(CCOc3ccc(F)cc3)C1)CC2,,"VTA dopamine neurons, stress-naive male mice","intraperitoneal, 10 mg/kg",reference: baseline,firing rate,no effect
COc1ccc(C2CC(c3ccc(C)cc3)=Nc3ccccc3S2)cc1OC (stereo not shown),,"Wistar rat, STZ-induced diabetes","oral, 20 mg/kg once daily, day 21",,blood glucose,120 ± 4.88 mg/dL
CC(CCC(=O)NCc1ccc(C(=O)NO)cc1)C1CCC2C3C(O)CC4CC(O)CCC4(C)C3CCC12C (stereo not shown),,"PCK rats, liver",dose not given,reference: untreated,increase in ciliated cholangiocytes,182%
CCOC(=O)c1cc2c(N)c(C(=O)OC)sc2nc1C,,Sprague-Dawley rats,"subcutaneous, dose not given",reference: vehicle,non-urea solute excretion,no effect
COc1ccc2c(c1)c(CC(=O)OCC(=O)c1ccccc1)c(C)n2C(=O)c1ccc(Cl)cc1,hot plate test,BALB/c mice,"50 mg/kg, 60 min",,latency of nociceptive response,14.1 ± 1 s
Cc1ncsc1-c1ccc(C(CO)NC(=O)C2CC(O)CN2C(=O)C(C(C)C)n2cc(-c3ccc(COc4c(-c5c(C)c(F)cc6[nH]ncc56)c(C5CC5)cc5c(N6CC7CC6CN7)nc(OC6CCOCC6)nc45)cc3)nn2)cc1 (stereo not shown),"immunoblot, measured: p-ERK and DUSP4","mouse PK-59 xenograft, tumour","intravenous, single dose, NG, 24 h",,protein level,decreased
CCOP(=O)(CC(=O)Nc1ccc(S(=O)(=O)N(CC(N)=O)c2ccc(N(CC(N)=O)S(=O)(=O)c3ccc(OC)cc3)c3ccccc23)cc1)OCC,novel object recognition,APP/PS1 mice,"intragastric, 40 mg/kg, 60 days, lentivirus intracerebroventricular",reference: untreated APP/PS1,preference index,increased
Cc1[nH]nc2c1N=C(c1ccccc1Cl)c1cnc(N3CCOCC3)cc1N2,immunohistochemistry,"HCC1806 xenograft, nude mice, tumour",dose not given,,phospho-histone H3 level,decreased
CC(=O)N[C@@H](CC(N)=O)C(=O)NCC(=O)N[C@@H](CCCNC(=N)N)C(=O)N[C@@H](C)C(N)=O,1H NMR,sodium phosphate buffer 50 mM,"pH 7.4, 46 °C",,rate constant succinimide to α-Asp,0.66 h⁻¹
C=C(c1cc(F)c(C(=O)O)c(F)c1)c1cc2c(cc1C)C(C)(C)CCC2(C)C,"RNA sequencing, measured: Epha3 mRNA","rat, brain","dose not given, 24 h, single dose",reference: vehicle,log2 fold change,-0.89
C[C@H](N)C(=O)N1CCC[C@H]1C(=O)NCC(=O)NCC(=O)O,"diketopiperazine formation, Arrhenius plot, ESI-MS",1-propanol,"70, 80, 90 °C, 0.5% acetic acid",,ΔG‡ at 298.15 K,22.5 ± 0.956 kcal/mol
CC(C)(CCCC/C=C/CCCCCC(C)(C)C(=O)O)C(=O)O,,"rhesus monkey, spontaneous hyperlipidemia","20 mg/kg, 2 weeks",reference: baseline,reduction in plasma TG,20.9%
COc1c2c(cc3oc(C)cc(=O)c13)O[C@H](C(C)(C)O[C@@H]1O[C@H](CO)[C@@H](O)[C@H](O)[C@H]1O)C2,analgesia,mouse,"oral, 1 mg/kg, 2 h",,hot plate latency,10.4 ± 1.39 s
CC(=O)[O-].O.O.O.O.[Mn+2].[O-]c1ccc(Br)cc1C=NCCN1CCOCC1,nitric oxide scavenging,,240 µM,,inhibition,52%
CC(C)c1cnc(-c2cc(Cl)ccc2F)cc1Nc1ccncc1C(=O)NC(CO)CO,"SMAD2/3 phosphorylation, flow cytometry","human patients, peripheral monocytes","dose not given, with enzalutamide",,inhibition,> 50%

# A few entries again:
SMILES,assay,system,conditions,how to read,measurement,value
CC(=O)N[C@@H](CC(N)=O)C(=O)NCC(=O)N[C@@H](CCCNC(=N)N)C(=O)N[C@@H](C)C(N)=O,1H NMR,sodium phosphate buffer 50 mM,"pH 7.4, 46 °C",,rate constant succinimide to α-Asp,0.66 h⁻¹
CC(C)(CCCC/C=C/CCCCCC(C)(C)C(=O)O)C(=O)O,,"rhesus monkey, spontaneous hyperlipidemia","20 mg/kg, 2 weeks",reference: baseline,reduction in plasma TG,20.9%
CC(CCC(=O)NCc1ccc(C(=O)NO)cc1)C1CCC2C3C(O)CC4CC(O)CCC4(C)C3CCC12C (stereo not shown),,"PCK rats, liver",dose not given,reference: untreated,increase in ciliated cholangiocytes,182%
CC(=O)Nc1ccc(OC(=O)CCC(=O)[O][Pt-2]23([O]C(=O)CCC(=O)Oc4ccc(NC(C)=O)cc4)([NH2+][C@@H]4CCCC[C@H]4[NH2+]2)[O]C(=O)C(=O)[O]3)cc1,,"BALB/c mouse, 4T1 tumour, tumour tissue",dose not given,reference: PBS,TNF-alpha level,3 fold
